Assay results from different studies.
Compare with care: the assays were run in different laboratories.
Technique: steady-state kinetics
B1: TcC (Trypanosoma cruzi, UniProt Q4DGA3); chain MPREYEFAEKILFTEEEIRTRIMEVAKRIADDYKGKGLRPYVNPLVLISVLKGSFMFTADLCRALSDFNVPVRMEFICVSSYGEGVTSSGQVRMLLDTRHSIEGHHVLIVEDIVDTALTLNYLYHMYFTRRPASLKTVVLLDKREGRRVPFSADYVVANIPNAFVIGYGLDYDDTYRELRDIVVLRPEVYAEREAARQKKQRAIGSADTDRDAKREFHSKY
B2: oxdC (Bacillus subtilis, UniProt O34714); chain MKKQNDIPQPIRGDKGATVKIPRNIERDRQNPDMLVPPETDHGTVSNMKFSFSDTHNRLEKGGYAREVTVRELPISENLASVNMRLKPGAIRELHWHKEAEWAYMIYGSARVTIVDEKGRSFIDDVGEGDLWYFPSGLPHSIQALEEGAEFLLVFDDGSFSENSTFQLTDWLAHTPKEVIAANFGVTKEEISNLPGKEKYIFENQLPGSLKDDIVEGPNGEVPYPFTYRLLEQEPIESEGGKVYIADSTNFKVSKTIASALVTVEPGAMRELHWHPNTHEWQYYISGKARMTVFASDGHARTFNYQAGDVGYVPFAMGHYVENIGDEPLVFLEIFKDDHYADVSLNQWLAMLPETFVQAHLDLGKDFTDVLSKEKHPVVKKKCSK
B3: LYS1 C205S/D319A (Saccharomyces cerevisiae, UniProt P38998); chain MAAVTLHLRAETKPLEARAALTPTTVKKLIAKGFKIYVEDSPQSTFNINEYRQAGAIIVPAGSWKTAPRDRIIIGLKEMPETDTFPLVHEHIQFAHCYKDQAGWQNVLMRFIKGHGTLYDLEFLENDQGRRVAAFGFYAGFAGAALGVRDWAFKQTHSDDEDLPAVSPYPNEKALVKDVTKDYKEALATGARKPTVLIIGALGRSGSGAIDLLHKVGIPDANILKWDIKETSRGGPFDEIPQADIFINCIYLSKPIAPFTNMEKLNNPNRRLRTVVDVSADTTNPHNPIPIYTVATVFNKPTVLVPTTAGPKLSVISIAHLPSLLPREASEFFSHDLLPSLELLPQRKTAPVWVRAKKLFDRHCARVKRSSRL
B4: enzyme (Phocaeicola vulgatus, UniProt A6KWY5); chain MKAIQITAPSEMKVVDIEKPVLEPGEVLVKIKYVGFCGSDLNTFLGRNPMVKLPVIPGHEVGAVIEAVGKDVPDSLKPGMSVTVNPYTNCGKCASCRNGRVNACEHNETLGVQRNGAMCEYIALPWSKIIPAHRIPPRDCALIEPMSVGFHAVSRAQVTDIDIVMVIGCGMIGMGAIVRSALRGATVIAVDLDDEKLELAKRIGAHHTINSMTENVHECLTKITEGLGPDVVIEAVGSPATYVMAVNEVGFTGRVVCIGYAKSEVSFQTKYFVQKELDIRGSRNALPTDFRAVIRYMEQGTCPKNELISKVVKPEAAIQAMKEWAAAPGKVFRILVEFD
B5: enzyme A178R/D177A/M179S/P184R (Levilactobacillus brevis, UniProt Q03Q85); chain MKVTVVGCTHAGTFAIKQILAEHPDAEVTVYERNDVISFLSCGIALYLGGKVADPQGLFYSSPEELQKLGANVQMNHNVLAIDPDQKTVTVEDLTNHAQTTESYDKLVMTSGSWPIVPKIPGIDSDRVKLCKNWAHAQALIEDAKEAKRITVIGAGYIGAELAEAYSTTGHDVTLIARSARVMRKYFDADFTDVIEQDYRDHGVQLALGETVESFTDSATGLTIKTDKNSYETDLAILCIGFRPNTDLLKGKVDMAPNGAIITDDYMRSSNPDIFAAGDSAAVHYNPTHQNAYIPLATNAVRQGILVGKNLVKPTVKYMGTQSSSGLALYDRTIVSTGLTLAAAKQQGLNAEQVIVEDNYRPEFMPSTEPVLMSLVFDPDTHRILGGALMSKYDVSQSANTLSVCIQNENTIDDLAMVDMLFQPNFDRPFNYLNILAQAAQAKVAQSVNA
Chain of UniProt Q9H015 (whole entry, looked up): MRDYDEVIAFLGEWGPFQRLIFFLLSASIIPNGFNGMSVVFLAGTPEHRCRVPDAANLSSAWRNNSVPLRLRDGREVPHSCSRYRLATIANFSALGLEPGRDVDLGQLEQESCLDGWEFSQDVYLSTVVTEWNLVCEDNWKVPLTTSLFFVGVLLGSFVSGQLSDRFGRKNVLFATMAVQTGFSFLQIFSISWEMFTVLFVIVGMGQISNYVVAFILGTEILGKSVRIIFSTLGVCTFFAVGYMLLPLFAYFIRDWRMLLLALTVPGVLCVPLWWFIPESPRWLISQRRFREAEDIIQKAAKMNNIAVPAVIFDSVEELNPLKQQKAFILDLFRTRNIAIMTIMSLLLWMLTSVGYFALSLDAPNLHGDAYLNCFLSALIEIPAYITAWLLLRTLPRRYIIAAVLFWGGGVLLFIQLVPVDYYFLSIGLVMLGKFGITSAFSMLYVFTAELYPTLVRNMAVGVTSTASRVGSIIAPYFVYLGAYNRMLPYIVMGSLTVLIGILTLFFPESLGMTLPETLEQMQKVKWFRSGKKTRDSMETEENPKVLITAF
Chain of UniProt Q01740 (whole entry, looked up): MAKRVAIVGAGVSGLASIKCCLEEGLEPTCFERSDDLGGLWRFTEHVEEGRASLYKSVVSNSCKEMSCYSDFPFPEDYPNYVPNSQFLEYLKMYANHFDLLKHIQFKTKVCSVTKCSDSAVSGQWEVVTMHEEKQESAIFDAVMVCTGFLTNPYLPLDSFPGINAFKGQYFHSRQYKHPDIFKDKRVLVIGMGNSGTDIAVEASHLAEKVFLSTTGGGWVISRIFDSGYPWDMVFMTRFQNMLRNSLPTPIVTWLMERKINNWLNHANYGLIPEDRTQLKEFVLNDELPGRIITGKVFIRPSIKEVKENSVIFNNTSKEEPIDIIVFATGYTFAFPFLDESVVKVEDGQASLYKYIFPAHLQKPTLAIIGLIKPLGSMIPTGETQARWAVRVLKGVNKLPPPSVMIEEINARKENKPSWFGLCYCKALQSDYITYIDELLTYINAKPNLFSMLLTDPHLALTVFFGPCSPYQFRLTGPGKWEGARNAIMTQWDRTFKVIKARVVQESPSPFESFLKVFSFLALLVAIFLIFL
Chain of UniProt P08253 (whole entry, looked up): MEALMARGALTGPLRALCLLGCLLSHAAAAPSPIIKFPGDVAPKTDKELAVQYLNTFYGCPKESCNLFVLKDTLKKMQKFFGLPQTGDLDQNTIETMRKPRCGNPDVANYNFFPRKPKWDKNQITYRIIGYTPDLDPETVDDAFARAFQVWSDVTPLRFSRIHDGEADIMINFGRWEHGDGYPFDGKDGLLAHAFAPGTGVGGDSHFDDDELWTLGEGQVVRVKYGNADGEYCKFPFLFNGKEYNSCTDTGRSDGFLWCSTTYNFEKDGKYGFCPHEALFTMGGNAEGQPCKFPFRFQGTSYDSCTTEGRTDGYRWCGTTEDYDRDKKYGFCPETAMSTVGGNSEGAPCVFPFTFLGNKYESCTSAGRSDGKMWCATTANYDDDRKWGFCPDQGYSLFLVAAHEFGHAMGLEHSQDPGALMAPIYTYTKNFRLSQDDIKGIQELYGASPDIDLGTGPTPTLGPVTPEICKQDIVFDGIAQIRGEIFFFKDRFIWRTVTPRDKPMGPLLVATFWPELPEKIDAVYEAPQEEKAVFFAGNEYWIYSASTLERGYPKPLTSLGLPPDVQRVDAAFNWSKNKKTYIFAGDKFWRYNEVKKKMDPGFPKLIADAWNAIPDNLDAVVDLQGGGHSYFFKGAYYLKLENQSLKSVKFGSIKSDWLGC
Chain of UniProt Q9LIN2 (whole entry, looked up): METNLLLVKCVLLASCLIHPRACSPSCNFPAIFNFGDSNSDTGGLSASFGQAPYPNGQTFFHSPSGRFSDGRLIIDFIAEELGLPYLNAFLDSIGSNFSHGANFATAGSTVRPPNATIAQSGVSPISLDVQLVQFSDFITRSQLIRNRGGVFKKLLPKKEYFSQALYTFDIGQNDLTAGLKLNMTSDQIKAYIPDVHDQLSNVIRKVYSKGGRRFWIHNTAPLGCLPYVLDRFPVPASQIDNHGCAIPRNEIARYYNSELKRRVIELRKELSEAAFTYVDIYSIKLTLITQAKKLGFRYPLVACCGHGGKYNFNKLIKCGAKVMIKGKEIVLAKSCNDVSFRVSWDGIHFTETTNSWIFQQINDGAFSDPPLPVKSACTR
Chain of UniProt Q6ZQB6 (whole entry, looked up): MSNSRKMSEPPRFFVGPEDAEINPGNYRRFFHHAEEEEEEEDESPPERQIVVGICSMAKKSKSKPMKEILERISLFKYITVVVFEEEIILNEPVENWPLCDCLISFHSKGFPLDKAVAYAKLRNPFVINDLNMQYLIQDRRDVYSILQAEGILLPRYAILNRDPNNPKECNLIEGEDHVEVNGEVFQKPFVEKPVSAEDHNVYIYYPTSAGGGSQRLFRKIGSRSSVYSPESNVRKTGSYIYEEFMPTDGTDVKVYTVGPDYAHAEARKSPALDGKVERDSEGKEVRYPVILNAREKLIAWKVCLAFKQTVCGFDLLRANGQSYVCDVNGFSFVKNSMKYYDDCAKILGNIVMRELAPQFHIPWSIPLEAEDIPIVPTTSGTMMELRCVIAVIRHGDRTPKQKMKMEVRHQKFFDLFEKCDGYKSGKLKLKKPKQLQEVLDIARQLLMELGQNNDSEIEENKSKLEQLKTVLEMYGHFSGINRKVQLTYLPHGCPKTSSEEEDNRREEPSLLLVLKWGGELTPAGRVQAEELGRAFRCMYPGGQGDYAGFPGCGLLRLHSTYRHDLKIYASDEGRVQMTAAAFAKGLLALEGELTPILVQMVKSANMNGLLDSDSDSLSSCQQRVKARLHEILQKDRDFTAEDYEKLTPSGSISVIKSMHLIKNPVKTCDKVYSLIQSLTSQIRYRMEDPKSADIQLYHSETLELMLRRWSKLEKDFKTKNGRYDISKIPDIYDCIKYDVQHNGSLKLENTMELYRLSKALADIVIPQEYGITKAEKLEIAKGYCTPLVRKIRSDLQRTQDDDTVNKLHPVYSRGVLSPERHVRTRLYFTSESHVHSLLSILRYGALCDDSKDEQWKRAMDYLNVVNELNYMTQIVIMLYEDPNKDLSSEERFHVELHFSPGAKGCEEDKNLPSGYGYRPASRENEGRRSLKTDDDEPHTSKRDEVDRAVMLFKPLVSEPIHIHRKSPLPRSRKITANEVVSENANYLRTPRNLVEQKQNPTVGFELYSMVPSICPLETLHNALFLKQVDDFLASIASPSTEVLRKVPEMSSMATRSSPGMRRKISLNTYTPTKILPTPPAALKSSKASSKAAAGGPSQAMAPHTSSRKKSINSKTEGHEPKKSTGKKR

`B1 (TcC)` has a Km of 39 µM (O=P(O)(O)OC[C@H]1O[C@H](OP(=O)(O)OP(=O)(O)O)[C@H](O)[C@@H]1O; pH 8.3, 37 °C, IMP biosynthesis, apparent, together with: Hx 100 µM).
`MMP2 (Homo sapiens, UniProt P08253)` gave a Km of 2030 µM (CC(=O)N[C@@H](CCC(N)=O)C(=O)N1CCC[C@H]1C(=O)N[C@@H](CCC(N)=O)C(=O)NCC(=O)N[C@@H](CC(C)C)C(=O)N[C@@H](C)C(=O)N[C@@H](CCCCN)C(N)=O).
For `Ppip5k2 (Mus musculus, UniProt Q6ZQB6)`, the Km was 6.8 µM (O=P(O)(O)O[C@@H]1[C@@H](OP(=O)(O)O)[C@H](OP(=O)(O)OP(=O)(O)O)[C@@H](OP(=O)(O)O)[C@H](OP(=O)(O)OP(=O)(O)O)[C@@H]1OP(=O)(O)O; pH 5, 37 °C).
`SLC22A4 (Homo sapiens, UniProt Q9H015)` gave a Km of 13 µM (C[N+](C)(C)[C@@H](Cc1cnc([Se][Se]c2ncc(C[C@@H](C(=O)[O-])[N+](C)(C)C)[nH]2)[nH]1)C(=O)[O-]; not purified).
The Km of `B2 (oxdC)` is reported as 8400 µM (O=C(O)C(=O)O; pH 4.2, together with: Mn 1.87 per monomer, Triton X-100.2%).
`At3g26430 (Arabidopsis thaliana, UniProt Q9LIN2)` gave a Km of 2000 µM (CCCC(=O)Oc1ccc([N+](=O)[O-])cc1; E. coli soluble lysate; pH 7.5, 30 °C, not purified).
`enzyme (Agrobacterium fabrum, UniProt Q7CU96)` has a Km of 27 µM (O=C(O)C(=O)C[C@@H](O)[C@H](O)C(=O)O; pH 7.9).
The Km of `pgmB H20N (Lactococcus lactis) (sequence not shown)` is reported as 1.49 µM (O=P(O)(O)OC[C@H]1O[C@@H](OP(=O)(O)O)[C@H](O)[C@@H](O)[C@@H]1O; pH 7, 25 °C).
With `FMO1 (Homo sapiens, UniProt Q01740)` the Km was 60 µM (CN(C)CCCOc1nn(Cc2ccccc2)c2ccccc12; HEK293 microsomes; 37 °C, not purified, together with: NADPH regenerating system).
With `B3 (LYS1 C205S/D319A)` the Km was 1200 µM (NCCCC[C@H](N)C(=O)O; pH 7.2, 25 °C, together with: NADH and α-Kg).
`B4 (enzyme)` gave a Km of 550 µM (O=C(O)[C@@H](O)[C@H](O)[C@H](O)C(=O)CO; pH 7, 30 °C).
The Km of `B5 (enzyme A178R/D177A/M179S/P184R)` is reported as 2.8 µM (NC(=O)C1=CN([C@@H]2O[C@H](COP(=O)(O)OP(=O)(O)OC[C@H]3O[C@@H](n4cnc5c(N)ncnc54)[C@H](OP(=O)(O)O)[C@@H]3O)[C@@H](O)[C@H]2O)C=CC1; pH 7.5, 37 °C).
